Experimental data from different studies.
Compare with care: the assays were run in different laboratories. Numbers after ± are the reported error.
POLB: DNA polymerase beta (POLB, Homo sapiens, UniProt P06746)

SMILES	target	test	test system	conditions	how to read	endpoint	result
Cc1csc(CCCNc2nc3c(c(=O)[nH]2)[n+](C)cn3C2OC(COP(=O)(O)OP(=O)([O-])OP(=O)(O)OCC3OC(n4cnc5c(=O)[nH]c(N)nc54)C(O)C3O)C(O)C2O)n1 (centres unmarked)	Eukaryotic translation initiation factor 4E (Eif4e, Mus musculus, UniProt P63073)	differential scanning fluorimetry	–	100 µM	–	melting temperature	49.5 °C
CC[C@H](C)[C@H](NC(=O)[C@H](CCCNC(=N)N)NC(=O)[C@H](CCC(=O)O)NC(=O)[C@H](Cc1ccccc1)NC(=O)[C@@H](NC(=O)[C@H](C)NC(=O)[C@@H](NC(=O)[C@H](CCCNC(=N)N)NC(=O)[C@@H](NC(=O)[C@@H]1CCCN1C(=O)[C@H](CC(C)C)NC(=S)Nc1ccc2c(c1)C(=O)OC21c2ccc(O)cc2Oc2cc(O)ccc21)[C@@H](C)O)[C@@H](C)O)[C@@H](C)O)C(=O)N1CCC[C@H]1C(=O)N[C@@H](CC(C)C)C(=O)N[C@@H](CCCCN)C(=O)N[C@@H](CCCCN)C(=O)N[C@@H](CCSC)C(=O)N1CCC[C@H]1C(=O)N[C@@H](CO)C(=O)N[C@H](C(=O)N[C@@H](CCCNC(=N)N)C(=O)O)C(C)C	Renin receptor (Atp6ap2, Mus musculus, UniProt Q9CYN9)	–	neuron-specific PRR-KO mice, brain sections PVN	dose not given	relative to: wild type	fluorescent binding	decreased
CCn1c(-c2cc(NC(=O)c3cnccn3)n[nH]2)cc2ccc(OC)cc21	Casein kinase II subunit alpha' (CSNK2A2, Homo sapiens, UniProt P19784)	ADP-Glo	–	–	relative to: IC50 CK2α' over CK2α	selectivity ratio	5.8 fold
Nc1nc2c(ncn2[C@H]2C[C@H](O)[C@@H](COP(=O)(O)OP(=O)(O)[C@@H](Cl)P(=O)(O)O)O2)c(=O)[nH]1	POLB	substrate, quench-flow kinetics	–	pH 8.0, 37 °C, misincorporation opposite T in gapped DNA	–	kpol	0.051 ± 0.003 s⁻¹
Nc1nc2c(ncn2C2CC(O)C(COP(=O)(O)OP(=O)(O)C(F)(Cl)P(=O)(O)O)O2)c(=O)[nH]1 (mixture of isomers)	POLB	nucleotide incorporation rate, substrate, single-turnover kinetics	single-nucleotide gapped DNA	37 °C, wild type, misincorporation, added: dGTP opposite template A	–	kpol	0.0018 ± 0.0003 s⁻¹
CC(=O)N[C@@H](Cc1c[nH]c2ccccc12)C(=O)N[C@@H](Cc1c[nH]c2ccccc12)C(=O)N[C@@H](Cc1c[nH]c2ccccc12)C(=O)N[C@@H](Cc1c[nH]c2ccccc12)C(=O)N[C@@H](Cc1c[nH]c2ccccc12)C(=O)N[C@@H](Cc1c[nH]c2ccccc12)C(=O)N[C@@H](Cc1c[nH]c2ccccc12)C(=O)NCCCC[C@@H]1NC(=O)[C@H](CCCNC(=N)N)NC(=O)[C@H](CCCNC(=N)N)NC(=O)[C@H](CCCNC(=N)N)NC(=O)[C@H](CCCNC(=N)N)NC(=O)[C@H](CCCNC(=N)N)NC1=O	Cyclin-dependent kinase 2, with cyclin A1 (CDK2, Homo sapiens, UniProt P24941)	kinase activity, Reaction Biology radiometric	–	concentration not given, added: ATP 200 µM	relative to: DMSO	remaining activity	7%
CC(=O)Nc1ccc(CNc2ccnc3cc(Cl)ccc23)cc1	Nuclear receptor subfamily 4 group A member 2, ligand binding domain (Homo sapiens, UniProt P43354)	reporter gene, agonist, Gal4-Nurr1 hybrid reporter	HEK-293T	30 µM, crude library product	relative to: vehicle (0.1% DMSO)	activation	≤ 1.5 fold
COc1ccc(-c2cc(C(F)(F)F)nc(NCc3cccnc3)n2)cc1OC	Secretin receptor (SCTR, Homo sapiens, UniProt P47872)	cAMP accumulation, positive allosteric modulator	CHO-K1 overexpressing SCTR	added: EC10-EC20 secretin peptide mix	relative to: EC95 peptide mix	Emax	71 ± 15%
[11CH3]Nc1ccc(-c2nc3ccc(O)cc3o2)cn1	Amyloid-beta precursor protein (APP, Homo sapiens, UniProt P05067)	binding, PET, reference Logan	Alzheimer's disease patients, parietal cortex	–	relative to: cerebellum	distribution volume ratio	1.68 ± 0.2
O=C(CCc1cn[nH]c1)N1CCOC(CC(c2ccccc2)c2ccccc2)C1 (centres unmarked)	Troponin C, slow skeletal and cardiac muscles, with cTnI (TNNC1, Human, UniProt P63316, C35S/C84S/T53C)	stopped-flow fluorescence	–	50 µM, IAANS-labelled chimera	–	Ca2+ dissociation rate	49 ± 0.3 s⁻¹
CNc1ccccc1C(=O)O[C@H]1C[C@H](n2cnc3c(N)ncnc32)O[C@@H]1COP(=O)(O)OP(=O)(O)O	Unconventional myosin-Va (Gallus gallus, UniProt Q02440, D297C/G292C/I296C/S293C/V295G)	stopped-flow FRET, linear fit intercept	–	10 °C, added: EDTA 4 mM	–	dissociation rate constant	25.5 ± 1.06 s⁻¹
CCCCCCc1ccc(Oc2ccc(Oc3cccc(=O)[nH]3)cc2)c(O)c1	Enoyl-[acyl-carrier-protein] reductase [NADPH] FabI (Staphylococcus aureus, UniProt Q6GI75)	binding	–	–	–	residence time	345 min
CN1CCN(CC(=O)N2N=C3/C(=C/c4ccccc4)CCCC3C2c2ccccc2)CC1 (mixture of isomers)	Polyunsaturated fatty acid lipoxygenase ALOX15 (ALOX15, Homo sapiens, UniProt P16050)	enzyme activity, activator	–	10 µM, added: docosahexaenoic acid 25 µM	relative to: no activator	initial rate increase	19%
CN1CCc2cc(O)c(O)cc2C(c2ccccc2)C1 (centres unmarked)	Carbamate kinase (Giardia intestinalis, UniProt A8BB85)	enzyme activity, inhibitor, luminescence, ATP detection	Giardia lamblia	–	–	maximal inhibition	85.4%

A few entries again:
SMILES	target	test	test system	conditions	how to read	endpoint	result
Nc1nc2c(ncn2[C@H]2C[C@H](O)[C@@H](COP(=O)(O)OP(=O)(O)[C@@H](Cl)P(=O)(O)O)O2)c(=O)[nH]1	POLB	substrate, quench-flow kinetics	–	pH 8.0, 37 °C, misincorporation opposite T in gapped DNA	–	kpol	0.051 ± 0.003 s⁻¹
